Results pooled from the literature.
Each line is one published result; not all experiments were run side by side.
GBA2: Beta-glucosidase (GBA2, Homo sapiens, UniProt Q9HCG7)
Sequence of UniProt Q9HCG7 (whole entry, looked up): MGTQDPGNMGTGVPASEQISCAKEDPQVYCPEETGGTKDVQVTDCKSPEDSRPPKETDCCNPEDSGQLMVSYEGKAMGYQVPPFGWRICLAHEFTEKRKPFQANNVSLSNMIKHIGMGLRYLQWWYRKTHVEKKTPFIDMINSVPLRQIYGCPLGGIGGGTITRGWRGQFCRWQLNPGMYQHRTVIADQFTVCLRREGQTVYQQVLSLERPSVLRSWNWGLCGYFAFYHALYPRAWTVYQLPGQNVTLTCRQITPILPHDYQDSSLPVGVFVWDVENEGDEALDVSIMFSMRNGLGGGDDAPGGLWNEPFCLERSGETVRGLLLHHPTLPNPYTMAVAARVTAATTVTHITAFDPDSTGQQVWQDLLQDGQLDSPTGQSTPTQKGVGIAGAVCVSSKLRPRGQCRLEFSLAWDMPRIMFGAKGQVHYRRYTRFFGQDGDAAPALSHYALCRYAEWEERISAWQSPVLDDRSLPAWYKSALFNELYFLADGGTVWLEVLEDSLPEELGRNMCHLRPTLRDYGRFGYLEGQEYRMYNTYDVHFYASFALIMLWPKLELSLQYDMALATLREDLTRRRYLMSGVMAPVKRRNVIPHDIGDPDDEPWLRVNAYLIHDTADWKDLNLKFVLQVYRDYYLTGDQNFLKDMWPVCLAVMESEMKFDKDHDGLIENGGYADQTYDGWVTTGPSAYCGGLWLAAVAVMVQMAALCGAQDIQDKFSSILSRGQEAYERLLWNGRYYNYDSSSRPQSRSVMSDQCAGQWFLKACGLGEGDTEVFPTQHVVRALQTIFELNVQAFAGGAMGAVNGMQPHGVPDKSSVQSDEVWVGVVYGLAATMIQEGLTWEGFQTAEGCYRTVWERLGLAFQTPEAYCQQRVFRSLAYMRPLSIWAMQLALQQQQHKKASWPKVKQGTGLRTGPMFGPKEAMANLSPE

CN1CCCNC(=O)c2cccc(c2)C(=O)NCCCN(C)CCCNc2cccc3c2C(=O)c2cccc(c2C3=O)NCCC1
log2 fold change (SAS; RNA-Seq, measured: FEZ2 mRNA; 1 µM, 6 h; relative to: untreated cells): -1.08

Cn1ncc2cc(-c3cncc(Cl)c3N3CCC4(CCNC4=O)CC3)ccc21
log2 fold change (LS174T; gene expression, microarray, measured: SPAG4 mRNA; concentration not given, 24 h; relative to: untreated cells): 2.75

CCN(CC)CC(=O)Nc1cccc(-n2cc(-c3ccc4ccc(-c5cn(-c6cccc(NC(=O)CN(CC)CC)c6)nn5)cc4c3)nn2)c1
fold regulation (RCC4; PCR angiogenesis array, measured: ANG; 5 x IC50, 4 h, normoxia; relative to: untreated): -1.35

Cc1ncsc1-c1ccc(C(C)NC(=O)C2CC(O)CN2C(=O)C(NC(=O)CCCCCCCCCCN2CCCC(Nc3ncc(Cl)c(Nc4ccccc4S(=O)(=O)C(C)C)n3)C2)C(C)(C)C)cc1 (centres unmarked)
log2 fold change (22Rv1; RNA-seq, measured: WDR89 mRNA; concentration not given; relative to: DMSO): -1.21

CC(C)c1ccc(N(C)c2ccc3c(c2)OCC[C@H]3CNc2cnccc2C(=O)O)cc1
IC50 (T84; cell growth or viability, ATP luminescence; 7 days): 21 nM

OC[C@@H]1[C@@H](O)[C@H](O)[C@@H](O)CN1CCCCCOCc1ccc(-c2ccc(F)nc2)cc1
selectivity ratio (GBA2; inhibitor, 4MU-β-D-glucopyranoside; HEK293T homogenates overexpressing GBA2; relative to: GCS IC50 over GBA2 IC50): 150

CNS(=O)(=O)Nc1nccc(Cc2c(C)c3ccc(Oc4ncccc4F)cc3oc2=O)c1F
IC50 (BFTC-905; cell viability; 7 days): 15.1 nM

CO[C@@H]1[C@@H](OC(N)=O)[C@@H](O)[C@H](Oc2ccc3c(O)c(NC(=O)c4ccc(O)c(CC=C(C)C)c4)c(=O)oc3c2C)OC1(C)C
colony count (HCT-116 parental; 300 µM, replicate 2): 0.1

CCN(C(=O)c1cc(F)ccc1Oc1nncnc1N1CCC2(C1)CN([C@H](CCCN(C)CCOC)C(C)C)C2)C(C)C
GI50 (UO-31; cell growth or viability; 72 h): > 10000 nM

COc1ccccc1-c1ccncc1C(=O)Nc1nnc(OCc2ccc(Cl)cc2)s1
colony survival (PEO1 BRCA2-mutant; 1.00 µM, together with: olaparib 0.125 µM): 0%

COc1ccccc1-c1ccc(COCCCCCN2C[C@H](O)[C@@H](O)[C@H](O)[C@H]2CO)cc1
selectivity ratio (GBA2; inhibitor, 4MU-β-D-glucopyranoside; HEK293T homogenates overexpressing GBA2; relative to: GCS IC50 over GBA2 IC50): 17

Some of these lines once more:
Cn1ncc2cc(-c3cncc(Cl)c3N3CCC4(CCNC4=O)CC3)ccc21
log2 fold change (LS174T; gene expression, microarray, measured: SPAG4 mRNA; concentration not given, 24 h; relative to: untreated cells): 2.75
